Measurements pooled from the literature.
Each line is one published result; not all experiments were run side by side.
Target: Alpha-2A adrenergic receptor (ADRA2A, Homo sapiens, UniProt P08913)
Sequence of UniProt P08913 (whole entry, looked up): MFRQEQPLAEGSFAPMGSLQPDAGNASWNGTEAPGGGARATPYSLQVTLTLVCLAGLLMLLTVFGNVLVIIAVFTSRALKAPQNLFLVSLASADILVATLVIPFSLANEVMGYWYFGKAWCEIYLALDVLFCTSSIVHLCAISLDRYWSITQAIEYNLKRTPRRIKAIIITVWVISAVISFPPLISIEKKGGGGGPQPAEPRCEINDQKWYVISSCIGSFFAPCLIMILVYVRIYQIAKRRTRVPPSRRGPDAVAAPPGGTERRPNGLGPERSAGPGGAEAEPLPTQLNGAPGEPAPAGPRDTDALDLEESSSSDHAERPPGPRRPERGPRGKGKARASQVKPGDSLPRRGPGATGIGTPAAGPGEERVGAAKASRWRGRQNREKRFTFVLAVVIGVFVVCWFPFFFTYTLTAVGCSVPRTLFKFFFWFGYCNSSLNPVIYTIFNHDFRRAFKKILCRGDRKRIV

Structure (SMILES)	observed	action	method	concentration	inhibition [%]
COc1ncc2nc(C)n(Cc3ncc(S(N)(=O)=O)cc3F)c2c1-c1ccccc1	–	antagonist	cell-based	10 µM	-3.13
Cc1[nH]nc2c1N=C(c1ccccc1Cl)c1cnc(N3CCOCC3)cc1N2	cell-free assay	–	–	10 µM	5
Cn1ccc2cc(-n3c(=O)[nH]c4sc5c(c4c3=O)CCCC5)ccc21	cell-free assay	–	radioligand	10 µM	12
COCC(=O)N1CCc2cc(-c3csc(NC(=O)c4cc(OC)cc(OC)c4)n3)ccc21	cell-free assay	–	–	10 µM	2
COc1ccc(C#CC2=C[C@H]3C[C@@]4(OC(=O)C=C24)[C@H]2CC[C@H](C(OC)OC)N32)cc1	ligand displacement	–	radioligand	10 µM	35
COc1ccc(C(=O)Nc2c(-c3cccs3)nc3ccccn23)cc1	ligand displacement	–	radioligand	10 µM	< 50
O=C1c2sc(-c3ccc(N4CCC(F)C4)nc3F)nc2CCN1c1cccnc1 (centres unmarked)	ligand displacement	–	radioligand	1 µM	3
CC(C)Cn1c(SCC(=O)N2CCc3ccccc3C2)nc2cc(Cl)ccc2c1=O	ligand displacement	–	radioligand	10 µM	8
